Experimental data collected from several papers.
Each numbered part is a random draw from the data of one study; scales do not carry over between parts. “And” joins repeats or separate records; there may be more than shown.
Sequence of UniProt P00519 (whole entry, unmodified, looked up): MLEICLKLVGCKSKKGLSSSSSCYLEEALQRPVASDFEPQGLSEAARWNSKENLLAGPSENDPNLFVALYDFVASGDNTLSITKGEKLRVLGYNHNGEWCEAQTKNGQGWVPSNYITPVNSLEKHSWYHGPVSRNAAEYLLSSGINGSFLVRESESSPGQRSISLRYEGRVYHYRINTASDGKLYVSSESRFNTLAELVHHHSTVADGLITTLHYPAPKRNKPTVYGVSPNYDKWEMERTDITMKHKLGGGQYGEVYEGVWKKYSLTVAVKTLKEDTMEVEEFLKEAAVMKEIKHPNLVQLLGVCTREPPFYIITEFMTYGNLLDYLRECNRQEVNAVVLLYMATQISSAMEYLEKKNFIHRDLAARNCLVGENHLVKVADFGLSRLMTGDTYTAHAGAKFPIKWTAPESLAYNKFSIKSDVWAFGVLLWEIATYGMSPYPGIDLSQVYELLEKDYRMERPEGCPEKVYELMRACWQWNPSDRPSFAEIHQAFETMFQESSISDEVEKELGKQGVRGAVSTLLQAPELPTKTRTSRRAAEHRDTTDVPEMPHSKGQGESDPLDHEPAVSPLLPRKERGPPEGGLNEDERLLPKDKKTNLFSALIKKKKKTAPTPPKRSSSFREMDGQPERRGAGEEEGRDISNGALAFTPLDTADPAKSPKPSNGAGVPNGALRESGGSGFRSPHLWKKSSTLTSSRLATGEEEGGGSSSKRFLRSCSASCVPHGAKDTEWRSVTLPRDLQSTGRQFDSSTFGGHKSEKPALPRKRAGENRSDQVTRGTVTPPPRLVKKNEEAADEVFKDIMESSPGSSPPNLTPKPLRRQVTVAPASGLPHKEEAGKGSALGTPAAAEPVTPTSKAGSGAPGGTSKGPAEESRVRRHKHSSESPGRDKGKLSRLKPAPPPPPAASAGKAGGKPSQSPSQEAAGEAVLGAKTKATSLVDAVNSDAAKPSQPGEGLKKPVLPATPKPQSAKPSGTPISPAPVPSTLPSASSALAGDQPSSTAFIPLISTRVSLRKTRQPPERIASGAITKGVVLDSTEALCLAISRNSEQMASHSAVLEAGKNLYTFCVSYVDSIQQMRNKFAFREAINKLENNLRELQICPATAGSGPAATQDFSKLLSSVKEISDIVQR
Sequence of UniProt Q8N568 (whole entry, looked up): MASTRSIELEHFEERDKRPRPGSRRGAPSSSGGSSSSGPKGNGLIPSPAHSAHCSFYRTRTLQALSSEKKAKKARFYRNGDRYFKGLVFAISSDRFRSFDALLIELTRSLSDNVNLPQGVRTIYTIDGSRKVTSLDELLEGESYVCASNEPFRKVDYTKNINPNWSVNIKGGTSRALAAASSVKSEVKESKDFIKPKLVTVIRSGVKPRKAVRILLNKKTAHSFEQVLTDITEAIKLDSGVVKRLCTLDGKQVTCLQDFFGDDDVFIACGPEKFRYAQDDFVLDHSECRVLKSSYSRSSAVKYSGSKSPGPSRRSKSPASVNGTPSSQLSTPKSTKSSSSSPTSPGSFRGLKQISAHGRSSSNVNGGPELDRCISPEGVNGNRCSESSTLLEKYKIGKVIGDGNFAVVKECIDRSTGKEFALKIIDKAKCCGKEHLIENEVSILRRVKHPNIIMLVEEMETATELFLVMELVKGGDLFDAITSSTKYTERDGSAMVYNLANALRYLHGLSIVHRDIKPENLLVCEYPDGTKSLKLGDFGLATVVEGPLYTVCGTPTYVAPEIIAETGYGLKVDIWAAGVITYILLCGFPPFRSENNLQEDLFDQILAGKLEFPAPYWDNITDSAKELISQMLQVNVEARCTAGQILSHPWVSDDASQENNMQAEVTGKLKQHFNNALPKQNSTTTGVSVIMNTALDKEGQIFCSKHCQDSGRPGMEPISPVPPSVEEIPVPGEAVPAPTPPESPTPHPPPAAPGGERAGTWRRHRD
Sequence of UniProt P14416 (whole entry, looked up): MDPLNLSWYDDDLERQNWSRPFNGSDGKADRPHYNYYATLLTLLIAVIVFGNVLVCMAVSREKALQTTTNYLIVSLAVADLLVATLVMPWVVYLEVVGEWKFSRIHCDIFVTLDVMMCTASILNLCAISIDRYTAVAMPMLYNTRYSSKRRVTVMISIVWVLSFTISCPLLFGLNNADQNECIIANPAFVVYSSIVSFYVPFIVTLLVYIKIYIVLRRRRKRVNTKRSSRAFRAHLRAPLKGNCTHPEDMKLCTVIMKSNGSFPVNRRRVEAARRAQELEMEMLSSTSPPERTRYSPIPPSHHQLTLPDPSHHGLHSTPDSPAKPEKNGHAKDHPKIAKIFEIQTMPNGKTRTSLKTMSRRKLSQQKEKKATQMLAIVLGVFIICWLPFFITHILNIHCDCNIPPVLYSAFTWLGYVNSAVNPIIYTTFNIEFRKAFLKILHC
Sequence of UniProt P25021 (whole entry, looked up): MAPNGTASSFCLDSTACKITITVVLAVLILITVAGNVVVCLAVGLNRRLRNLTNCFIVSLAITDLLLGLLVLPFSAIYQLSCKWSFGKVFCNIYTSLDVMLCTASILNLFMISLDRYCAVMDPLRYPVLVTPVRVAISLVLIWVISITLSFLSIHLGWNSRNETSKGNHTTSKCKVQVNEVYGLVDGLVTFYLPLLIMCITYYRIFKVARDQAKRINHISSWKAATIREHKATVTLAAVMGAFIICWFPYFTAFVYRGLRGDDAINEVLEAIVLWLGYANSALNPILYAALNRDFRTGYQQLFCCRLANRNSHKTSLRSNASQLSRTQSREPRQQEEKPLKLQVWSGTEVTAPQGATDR

Block 1
Compound: Cc1ccc(NC(=O)c2ccnc(C(F)(F)F)c2)cc1-c1cc(OCCO)nc(N2CCOCC2)c1
Tested at: 1 µM
ABL1 (Homo sapiens, UniProt P00519, T315I) — remaining binding: 77% and 100%.
For AKT3 (Homo sapiens, UniProt Q9Y243); binding: remaining binding read 100%.
For TGFBR2 (Homo sapiens, UniProt P37173); binding, competition with immobilised ligand: remaining binding read 100%.
The remaining binding was 100% (DCLK2 (Homo sapiens, UniProt Q8N568); binding).
For Tyrosine-protein kinase JAK2, JH1 (JAK2, Homo sapiens, UniProt O60674); cell-free assay, competition with immobilised ligand: remaining binding read 69%.
It gave 91% for remaining binding (MAP3K20 (Homo sapiens, UniProt Q9NYL2); binding, competition with immobilised ligand).

Block 2
Host: mouse
Sample: microsomes or S9
Tested at: 2 µM
Time: 0.5 h
For C[C@@H](NC(=O)c1cc(S(=O)(=O)N(C)C)c[nH]1)c1ncc[nH]1, the remaining compound was 47.6%.
For C/C(=C\COc1ccc2ccc(=O)oc2c1)CC/C=C(\C)CCC(O)C(C)(C)O (stereo not drawn), the remaining compound was 76.7%.
O=C(CS(=O)(=O)c1ccccc1)NC(c1ccccc1)c1ccccc1 has a remaining compound of 0.472%.
For COCCn1c(C)cc(C)c(C(=O)NCCNc2ncccn2)c1=O, the remaining compound was 70.6%.
With COCCOC(=O)c1c(C)[nH]c(C(=O)N2CCOc3ccc(S(C)(=O)=O)cc32)c1C the remaining compound was 81.2%.
For O=C(Cn1cnc2c(nnn2-c2cccc(Cl)c2)c1=O)N1CCCc2ccccc21, the remaining compound was 41.5%.
With COc1ccc(CCCNC(=O)c2cnn3cc(Br)cnc23)cc1 the remaining compound was 4.39%.
With COc1ccc(N)cc1N1CCCCS1(=O)=O the remaining compound was 94.1%.
The remaining compound of CCCNC(=O)[C@H](CC(C)C)NC(=S)NCCC is reported as 47.5%.

Block 3
Target: Serine/threonine-protein kinase WNK2 (WNK2, Homo sapiens, UniProt Q9Y3S1)
Sequence of UniProt Q9Y3S1 (whole entry, looked up): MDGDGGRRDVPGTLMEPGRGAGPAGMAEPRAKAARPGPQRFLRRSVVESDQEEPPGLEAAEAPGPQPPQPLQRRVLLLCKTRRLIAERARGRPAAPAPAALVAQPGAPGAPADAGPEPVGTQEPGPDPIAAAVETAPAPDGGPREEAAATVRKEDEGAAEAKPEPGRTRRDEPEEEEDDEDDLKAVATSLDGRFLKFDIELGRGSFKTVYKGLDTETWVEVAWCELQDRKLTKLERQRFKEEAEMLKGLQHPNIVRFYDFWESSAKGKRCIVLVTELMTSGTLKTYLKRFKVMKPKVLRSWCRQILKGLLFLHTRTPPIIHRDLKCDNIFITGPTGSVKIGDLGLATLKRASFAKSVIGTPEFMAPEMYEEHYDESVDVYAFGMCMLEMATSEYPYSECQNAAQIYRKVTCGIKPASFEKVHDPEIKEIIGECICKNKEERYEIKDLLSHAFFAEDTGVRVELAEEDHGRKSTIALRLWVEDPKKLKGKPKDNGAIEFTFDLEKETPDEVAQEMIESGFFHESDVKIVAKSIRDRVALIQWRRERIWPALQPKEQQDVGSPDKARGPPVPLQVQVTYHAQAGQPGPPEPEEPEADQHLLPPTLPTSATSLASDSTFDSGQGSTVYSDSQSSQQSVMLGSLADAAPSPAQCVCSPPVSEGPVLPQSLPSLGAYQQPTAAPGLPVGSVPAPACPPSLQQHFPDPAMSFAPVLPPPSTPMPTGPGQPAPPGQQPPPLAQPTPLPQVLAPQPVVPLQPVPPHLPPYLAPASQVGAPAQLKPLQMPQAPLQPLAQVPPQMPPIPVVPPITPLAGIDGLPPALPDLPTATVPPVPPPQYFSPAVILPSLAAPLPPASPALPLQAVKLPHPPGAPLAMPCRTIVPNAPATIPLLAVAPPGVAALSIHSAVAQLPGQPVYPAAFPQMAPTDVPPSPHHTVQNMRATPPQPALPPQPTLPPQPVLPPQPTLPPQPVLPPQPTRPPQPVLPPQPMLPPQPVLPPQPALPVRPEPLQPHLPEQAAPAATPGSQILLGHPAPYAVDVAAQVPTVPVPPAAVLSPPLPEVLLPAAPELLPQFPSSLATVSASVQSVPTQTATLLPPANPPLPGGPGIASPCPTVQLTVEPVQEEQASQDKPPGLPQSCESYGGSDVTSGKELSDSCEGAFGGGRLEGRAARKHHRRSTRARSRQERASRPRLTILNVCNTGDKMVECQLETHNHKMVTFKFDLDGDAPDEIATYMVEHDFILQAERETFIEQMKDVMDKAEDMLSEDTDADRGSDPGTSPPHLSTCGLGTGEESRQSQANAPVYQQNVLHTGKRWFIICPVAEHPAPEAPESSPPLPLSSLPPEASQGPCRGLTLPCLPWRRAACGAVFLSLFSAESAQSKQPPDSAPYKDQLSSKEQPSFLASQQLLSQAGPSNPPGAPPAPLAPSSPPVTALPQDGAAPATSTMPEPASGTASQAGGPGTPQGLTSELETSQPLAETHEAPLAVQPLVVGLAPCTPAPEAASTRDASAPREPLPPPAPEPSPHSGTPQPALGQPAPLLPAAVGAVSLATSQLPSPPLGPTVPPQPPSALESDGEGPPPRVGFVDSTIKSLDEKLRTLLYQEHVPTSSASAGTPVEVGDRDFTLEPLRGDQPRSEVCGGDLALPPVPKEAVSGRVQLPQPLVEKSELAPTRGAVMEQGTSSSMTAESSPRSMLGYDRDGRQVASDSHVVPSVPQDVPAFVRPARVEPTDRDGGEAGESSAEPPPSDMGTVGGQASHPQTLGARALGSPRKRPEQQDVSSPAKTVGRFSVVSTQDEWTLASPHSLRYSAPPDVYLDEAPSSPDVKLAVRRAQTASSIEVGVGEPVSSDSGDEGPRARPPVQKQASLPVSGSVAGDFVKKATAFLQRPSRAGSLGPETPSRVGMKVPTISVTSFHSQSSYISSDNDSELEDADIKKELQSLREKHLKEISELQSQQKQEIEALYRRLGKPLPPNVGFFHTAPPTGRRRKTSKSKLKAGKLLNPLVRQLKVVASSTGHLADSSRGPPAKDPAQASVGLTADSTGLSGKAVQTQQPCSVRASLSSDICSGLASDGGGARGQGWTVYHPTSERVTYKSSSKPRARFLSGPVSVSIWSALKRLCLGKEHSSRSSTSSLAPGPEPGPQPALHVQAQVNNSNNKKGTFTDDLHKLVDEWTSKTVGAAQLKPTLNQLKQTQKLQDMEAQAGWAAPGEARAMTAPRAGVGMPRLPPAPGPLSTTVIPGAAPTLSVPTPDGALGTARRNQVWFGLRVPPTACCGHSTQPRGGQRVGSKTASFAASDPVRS
Observed: enzyme activity
Mode: inhibitor
Tested at: 0.5 µM
Reference: control
For Nc1[nH]nc2nc3ccccc3nc12, the remaining activity was 95.9%.
With O=C(O)c1ccc2c3c1cccc3c(=O)n1c3ccccc3nc21 the remaining activity was 106%.
With CCOC(=O)c1c(C)[nH]c(/C=C2\C(=O)Nc3ccccc32)c1C the remaining activity was 100%.
The remaining activity of Cc1ccc(NC(=O)c2ccc(CN3CCN(C)CC3)cc2)cc1Nc1nc(-c2cccnc2)cs1 is reported as 99.2%.
The remaining activity of O=C1NC(=O)C(c2cn(CCCO)c3ncccc23)=C1c1cnccn1 is reported as 104%.
With NCCNc1ncc(C(N)=O)c(Nc2cccc(C(F)(F)F)c2)n1 the remaining activity was 103%.
With O=S(=O)(c1cccc2cnccc12)N1CCCNCC1 the remaining activity was 99.3%.
O=C(Nc1cccc(Nc2cc(Nc3cccc(C(F)(F)F)c3)ncn2)c1)C1CC1 gave a remaining activity of 109%.
CC(C)[C@H](CO)Nc1nc(Nc2cc(N)cc(Cl)c2)c2ncn(C(C)C)c2n1 has a remaining activity of 112%.
Oc1ccc(-c2nc(-c3ccncc3)c(-c3ccc(F)cc3)[nH]2)cc1 has a remaining activity of 102%.
With CN(C)c1ccc(C=C2C(=O)Nc3ccccc32)cc1 the remaining activity was 104%.
The remaining activity of O=C1NC(=O)C(c2cn(CCCn3ccnc3)c3ccccc23)=C1Nc1ccccc1 is reported as 99.8%.
With O=c1c2ccccc2[nH]c(=S)n1CCN1CCC(=C(c2ccc(F)cc2)c2ccc(F)cc2)CC1 the remaining activity was 96.3%.
COc1cc2ncnc(Nc3ccc(F)c(Cl)c3)c2cc1OCCCN1CCOCC1 has a remaining activity of 97.2%.
With Cn1c2ccccc2c2c3c(c4c5ccccc5n(CCC#N)c4c21)CNC3=O the remaining activity was 103%.
For OCC(O)CCON=C1C(c2c(O)[nH]c3ccccc23)=Nc2ccccc21 (stereo not drawn), the remaining activity was 85.4%.

Block 4
SMILES: C[C@@H](NC(=O)Nc1cc2[nH]ncc2c(CO)n1)c1ccccc1
Observed: cell-free assay
Tested at: 10 µM
CHRM2 (Homo sapiens, UniProt P08172) — inhibition: -3.22%.
For HTR7 (Homo sapiens, UniProt P34969): inhibition read 21.7%.
ADRA1A (Homo sapiens, UniProt P35348) — inhibition: 16.1%.
For HRH3 (Homo sapiens, UniProt Q9Y5N1): inhibition read 7.46%.
The inhibition was -13.1% (DRD2 (Homo sapiens, UniProt P14416)).
SIGMAR1 (Homo sapiens, UniProt Q99720) — inhibition: -27.5%.
For HRH2 (Homo sapiens, UniProt P25021): inhibition read 11.8%.
ADRA1D (Homo sapiens, UniProt P25100) — inhibition: -15.1%.

Repeated from above (block 3):
Oc1ccc(-c2nc(-c3ccncc3)c(-c3ccc(F)cc3)[nH]2)cc1 has a remaining activity of 102%.
With CN(C)c1ccc(C=C2C(=O)Nc3ccccc32)cc1 the remaining activity was 104%.
The remaining activity of O=C1NC(=O)C(c2cn(CCCn3ccnc3)c3ccccc23)=C1Nc1ccccc1 is reported as 99.8%.
With O=c1c2ccccc2[nH]c(=S)n1CCN1CCC(=C(c2ccc(F)cc2)c2ccc(F)cc2)CC1 the remaining activity was 96.3%.
COc1cc2ncnc(Nc3ccc(F)c(Cl)c3)c2cc1OCCCN1CCOCC1 has a remaining activity of 97.2%.
